Published values from different studies.
Each numbered part is a random draw from the data of one study; scales do not carry over between parts. “And” joins repeats or separate records; there may be more than shown.
UniProt P29376, sequence (whole entry, looked up): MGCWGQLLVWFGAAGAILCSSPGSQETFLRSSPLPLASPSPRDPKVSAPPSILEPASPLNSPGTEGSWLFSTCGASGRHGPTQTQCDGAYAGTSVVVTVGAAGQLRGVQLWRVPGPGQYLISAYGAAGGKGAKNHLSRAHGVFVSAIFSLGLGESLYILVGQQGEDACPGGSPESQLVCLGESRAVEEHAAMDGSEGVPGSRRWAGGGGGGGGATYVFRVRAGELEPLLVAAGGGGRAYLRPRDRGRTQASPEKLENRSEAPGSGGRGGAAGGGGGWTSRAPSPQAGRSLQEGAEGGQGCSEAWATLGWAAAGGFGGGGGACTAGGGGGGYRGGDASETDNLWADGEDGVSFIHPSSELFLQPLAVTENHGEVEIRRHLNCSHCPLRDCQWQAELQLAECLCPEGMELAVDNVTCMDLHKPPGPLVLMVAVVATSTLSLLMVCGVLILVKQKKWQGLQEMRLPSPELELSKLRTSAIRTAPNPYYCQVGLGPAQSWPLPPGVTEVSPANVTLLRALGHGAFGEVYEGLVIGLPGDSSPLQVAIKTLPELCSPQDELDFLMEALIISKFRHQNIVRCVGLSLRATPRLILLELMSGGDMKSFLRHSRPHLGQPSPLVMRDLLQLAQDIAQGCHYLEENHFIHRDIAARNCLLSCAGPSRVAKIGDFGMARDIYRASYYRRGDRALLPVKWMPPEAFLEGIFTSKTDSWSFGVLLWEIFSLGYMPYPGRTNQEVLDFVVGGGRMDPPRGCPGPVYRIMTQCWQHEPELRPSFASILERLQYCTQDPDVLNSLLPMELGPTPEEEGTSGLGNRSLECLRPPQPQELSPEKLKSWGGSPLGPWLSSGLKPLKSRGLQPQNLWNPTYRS

Sample 1
Cell line: A-375
Tested at: 100 µM
Time: 18 h
Endpoint: viability
O=C(O)CCCNC(=O)c1cccnc1: 104%
CC(=O)Nc1ncc([N+](=O)[O-])s1: 93.5%
c1ccc(Cc2nc3ccccc3[nH]2)cc1: 87.7%
COc1ccc(-c2coc3cc(O)ccc3c2=O)cc1: 91.1%
Nc1nc2ncc(CNc3ccc(C(=O)N[C@@H](CCC(=O)O)C(=O)O)cc3)nc2c(=O)[nH]1: 105%
NC(=O)N/N=C/c1ccc([N+](=O)[O-])o1: 96%
CC(C)NCC(O)COc1ccc(COCCOC(C)C)cc1 (racemic): 94.9%
N[C@@H](CSCCCO)C(=O)O: 108%

Sample 2
Structure (SMILES): CC(C)C[C@@H]1NC(=O)[C@@H](N(C)C(=O)[C@H](CC2CCC2)NC(=O)[C@@H]2C[C@@H](F)CN2C(=O)C2(C(F)(F)F)CC(F)(F)C2)CCCCNC(=O)C2(CC2)NC(=O)[C@H](Cc2cc(Cl)ccc2Cl)N(C)C1=O
Cell line: human CD34+ HSPC
Method: EdU flow cytometry
Time: 24 h
Endpoint: G0-G1 phase cells
300 nM: 49.8% and 50%
10 nM: 49% and 43.2%
1000 nM: 46.5% and 46.7%

Other studies, line by line
CCN(CC)C(=O)c1ccc(Nc2nc(OCC3CCCCC3)c3[nH]cnc3n2)cc1 — remaining activity (Leukocyte tyrosine kinase receptor (LTK, Homo sapiens, UniProt P29376); enzyme activity, inhibitor, radiometric; 0.5 µM): 66.1%
COc1ccc(C(=O)N2CCCC2=O)cc1 — nuclear SOX9 intensity (mouse MPNST tumor cells; high-content immunofluorescence imaging, item: nuclear SOX9; 10 µM, 12 h, mean of 2 replicates; baseline: DMSO control, higher = more nuclear SOX9): 91.2 % of DMSO and 94.3 % of DMSO
CC(C)(C)c1cnc(CSc2cnc(NC(=O)C3CCN(CCCCSc4cccc5c4C(=O)N(C4CCC(=O)NC4=O)C5=O)CC3)s2)o1 (stereo not shown) — viability (HH; CCK-8; 50 nM): 104%
CC[C@@H](C)c1nc2cc(Nc3ccnc4ccc(S(=O)(=O)C(C)C)cc34)ccc2s1.Cl — caspase-3 activity (L929; caspase activity, Ac-DEVD-pNA absorbance; 50 µM, 0 h; higher = more activity): 0.005 a.u. and -0.0035 a.u. and 0.007 a.u. and 0.0075 a.u. and 0.011 a.u.
CC(=O)N[C@@H](Cc1c[nH]c2ccccc12)C(=O)N[C@@H](CCC(=O)C=[N+]=[N-])C(=O)OC(C)C — taurine level (UPLC-MS/MS; EL4 tumor, C57BL/6 CES1-/- mice, tumor; subcutaneous, 0.3 mg/kg DON equivalent daily, 5 days; higher = more metabolite): 1.34e+08 a.u. and 1.63e+08 a.u. and 1.18e+08 a.u. and 1.49e+08 a.u. and 1.52e+08 a.u.

Excerpt of the above (sample 1):
N[C@@H](CSCCCO)C(=O)O: 108%
